Assay results of several laboratories.
Each numbered part is a random draw from the data of one study; scales do not carry over between parts. Substitutions count along the parent as printed.

Block 1
Target: RNA binding protein fox-1 homolog 2, RRM domain, GST-SBP tag (RBFOX2, Homo sapiens, UniProt O43251-10, residues 100-194)
Method: RNA Bind-n-Seq
Molecule type: RNA
Matrix: in vitro
Tested at: 365 nM
Notes: natural RNA segment, single round, ends assumed
Baseline: no-protein control
Reading: higher = stronger binding
Measurement: RBNS enrichment (R)
Target sequence (chain): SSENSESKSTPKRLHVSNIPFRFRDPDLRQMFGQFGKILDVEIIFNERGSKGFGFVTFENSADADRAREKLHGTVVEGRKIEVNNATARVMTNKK
Strand = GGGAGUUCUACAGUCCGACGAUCCAGACAGACACACUUUUCCACCAGUGUAUUUGAAUUUUAGACCAGUGACCCUGUUUUGUGGCAUUCAUGCAAAACAUGCUGAGGGCUUUGUUCAUCUGGUCAUCGUGUCCUGGAAUUCUCGGGUGCCAA; result = 0.651
Strand = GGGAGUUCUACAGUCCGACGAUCUUUGUACUUGCUUCCUCUCGACGCCUGCCACAACAGUUUUGCCAGUCACCAAACUCAGAAAAAACUAGCUGUGUGAGCAGCACCGUACCCUAGCGGUCUUCAGACAUUAAUGGAAUUCUCGGGUGCCAA; result = 0.285
Strand = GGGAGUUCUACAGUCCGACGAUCCACAUUGAUCCCAUUUCUGGAACAUUUUUCCUAUUUCCAGAGUUACAUAUGUUCUUUUGUCAUUACCCAAUUUAACCUCCCUUUCUCUGAUAUGCCUUGUAGCCAAAGUAUGGAAUUCUCGGGUGCCAA; result = 0.919
Strand = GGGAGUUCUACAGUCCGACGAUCAUCAAGGAUCUCCACAGAGGUGACUGUUGCCUAUCCACAACGACACUAGUGAUCACUCUUCAGAGAGUGACUCUCGGGAAAACUGAGAGAAAUGGCUUCCGGAUGAGAUGUGGAAUUCUCGGGUGCCAA; result = 0.226
Strand = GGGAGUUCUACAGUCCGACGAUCCAGCUUGUCUGAGUCAGCUCAUCCCCCUCCAGCCAGGCCUGACCAGGGAUUCAUAGAGUUCCGGGCCUGGGAUUCUCCCAGCUGCGCCAUAGGUCAUCCUCAACAACCCAUGGAAUUCUCGGGUGCCAA; result = 0.338
Strand = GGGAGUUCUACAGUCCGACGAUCUUAUAUGCCUGGUGCACAGUGCUUAGAAGUAAGCAAUUCCCAGGUCAUAGCUCAAGAAUUGUUAGCAAAUGACAGAUUUCUGUAAGCCUAUAUAUAUAGUCAAAUCGAUUUGGAAUUCUCGGGUGCCAA; result = 0.269
Strand = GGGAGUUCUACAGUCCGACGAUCCCCUUUCACCCCUCUGCAAAACAAACAAGCAACAUCCUCAAAACCCAACCCCAUGCCUCACAGAGCUUCCUGUGGCUUCUCCAGCCUUUCUCCCUCACAUCAGGAGGUAGUGGAAUUCUCGGGUGCCAA; result = 0.994
Strand = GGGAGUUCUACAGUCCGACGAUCCAGGGUCUGUCUUUUUCACCUUUGUACCUUUCAUGGCAUCUAGCAUAGUGCUUUGCACAUAGUCGUCACUCAGUGUUUGUUAAUAAAGCUACUAGUGUCAUUAAAACUCUUGGAAUUCUCGGGUGCCAA; result = 0.705
Strand = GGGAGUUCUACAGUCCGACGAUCCUCAACCCCUGCAACCUUCCCUAGCCCCCUCAAUAGAUGAGCAGGUCAGGCUGUGGCCCUUACCUCACCCGCAGUUCUCGCCCAGUGCUGCAGCCGGCUCACCUCUCUCCUGGAAUUCUCGGGUGCCAA; result = 0.784
Strand = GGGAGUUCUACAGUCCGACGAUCCCCAGCCUUGGUGAGCUCCAAGUUGAUGGGGGAGAGGGGAGAGUGGAGGAAAGCUCUUCUUGGUACAGUCUCCUCUUCCCACCAACUCCUCACGACUCUUCAUCAACCAAUGGAAUUCUCGGGUGCCAA; result = 0.625
Strand = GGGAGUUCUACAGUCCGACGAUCGAAGUCAGUUUGUGAAUGUUGUCUGUUAAGUAUUACAAAAUAACAAGGAAAAAAAAACAAAAUAACAAGGGUUAGAAGUUCAAAGUAAAAAACAGACAUCUUUGAUUUCUUGGAAUUCUCGGGUGCCAA; result = 1.6
Strand = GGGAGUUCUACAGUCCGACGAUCGCCCCACCUUCGGCUCUGAUGCCCUUCCCAAAGCCCUUUUCACCCGUGGUCUGACUUGACCCUGGGCCUUUUGGACACAGGUCAGCCUUCUGAUGUUUUCUGGCUGUCUUUGGAAUUCUCGGGUGCCAA; result = 0.349

Block 2
Target: PABPC1L2, full length, GST fusion (mouse, UniProt A0ABA7IW68)
Method: RNAcompete
Molecule type: RNA
Matrix: in vitro
Tested at: 20 nM
Notes: 7-mer, probes averaged, single round
Baseline: mean of 7-mers
Reading: higher = stronger binding
Measurement: 7-mer Z-score
Residues (chain): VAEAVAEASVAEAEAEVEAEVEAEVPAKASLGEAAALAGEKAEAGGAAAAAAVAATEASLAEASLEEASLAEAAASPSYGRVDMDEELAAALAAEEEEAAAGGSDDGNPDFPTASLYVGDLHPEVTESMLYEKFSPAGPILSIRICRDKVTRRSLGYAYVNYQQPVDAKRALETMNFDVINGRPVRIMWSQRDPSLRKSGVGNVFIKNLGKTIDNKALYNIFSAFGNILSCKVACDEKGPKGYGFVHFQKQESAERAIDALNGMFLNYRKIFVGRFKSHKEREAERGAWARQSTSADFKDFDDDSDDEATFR
Strand = UUAGAAC; result = -0.0428
Strand = GGGGCGC; result = 0.213
Strand = GGCUACG; result = -0.124
Strand = CAUCCAA; result = 0.0352
Strand = UGACAUA; result = -0.0953
Strand = GUCACUU; result = -0.193
Strand = GAACUGC; result = -0.202
Strand = GCUGGGC; result = 0.037
Strand = UUGGUGC; result = -0.228
Strand = UGUUCAG; result = -0.347
Strand = UAGCGCA; result = -0.0373
Strand = UGCUGUA; result = -0.253
Strand = CGCUCGU; result = -0.478
Strand = CCCGAUC; result = -0.262
Strand = GAUUUUG; result = -0.318
Strand = UUGGUCC; result = -0.191
Strand = CCUGCUG; result = -0.269
Strand = ACCGGCC; result = -0.362
Strand = CGGAUCU; result = -0.0699
Strand = UUCGCGA; result = -0.269
Strand = UCCGAGU; result = -0.177
Strand = GCAGCCC; result = -0.179
Strand = UACUGAC; result = -0.255
Strand = AGGUGCA; result = 0.193

Block 3
Target: ABI1, truncated, D143A, DHFR fusion (Arabidopsis thaliana, UniProt P49597)
Method: DHFR PCA, dose-response
Matrix: yeast
Notes: Hill fit, not affinity, not high confidence
Added: (+)-ABA, dose series
Reading: lower = more sensitive
Measurement: ABA EC50
Parent: PYL1, truncated, DHFR fusion (Arabidopsis thaliana, UniProt Q8VZS8); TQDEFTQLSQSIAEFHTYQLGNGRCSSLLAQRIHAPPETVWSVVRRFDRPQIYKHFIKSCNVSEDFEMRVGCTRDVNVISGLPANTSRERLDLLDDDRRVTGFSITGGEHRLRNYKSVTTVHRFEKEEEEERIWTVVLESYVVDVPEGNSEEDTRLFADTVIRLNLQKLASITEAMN
Substitution = T135L; result = 1440 µM
Substitution = L138H; result = 103 µM
Substitution = V40E; result = 1.58 µM
Substitution = K54V; result = 10.4 µM
Substitution = S87K; result = 3.44 µM
Substitution = N149C; result = 212 µM
Substitution = A35P; result = 0.405 µM
Substitution = F103K; result = 4.65 µM
Substitution = Y115S; result = 4.38 µM
Substitution = I105K; result = 18.4 µM
Substitution = V76E; result = 151 µM
Substitution = G81N; result = 281 µM
Substitution = H110F; result = 70.5 µM
Substitution = L112Q; result = 535 µM
Substitution = Y115R; result = 0.113 µM
Substitution = P83I; result = 2080 µM
Substitution = T119H; result = 18.3 µM
Substitution = V161S; result = 775 µM
Substitution = N165R; result = 7.05 µM
Substitution = A84M; result = 0.949 µM
Substitution = N165T; result = 753 µM
Substitution = T86P; result = 0.164 µM
Substitution = L169R; result = 2.42 µM
Substitution = N114V; result = 1450 µM

Block 4
Target: CCNB1, cyclin fold, Cln2 fusion (human)
Method: yeast growth competition, sequencing
Matrix: yeast
Notes: weak parent motif
Baseline: not given
Reading: higher = stronger binding
Measurement: normalised enrichment score
Parent: RB1 docking peptide (human); PKPLKKLRFDIEG
Substitution = D10L; result = 0.0706
Substitution = F9I; result = -0.125
Substitution = L7G; result = 0.389
Substitution = D10Q; result = 0.281
Substitution = K5M; result = 0.0907
Substitution = L4D; result = 1.55
Substitution = K6H; result = 0.842
Substitution = L4H; result = 0.569
Substitution = R8Q; result = 0.19
Substitution = R8F; result = 0.706
Substitution = K5N; result = 1.01
Substitution = I11V; result = 0.324
Substitution = G13E; result = 0.634
Substitution = I11Y; result = 0.617
Substitution = E12F; result = 0.0692
Substitution = E12K; result = -0.255
Substitution = K5L; result = 0.401
Substitution = L7I; result = 0.381
Substitution = K5W; result = 0.722
Substitution = K5C; result = -0.165
Substitution = P1T; result = 0.939
Substitution = K5Q; result = -0.0691
Substitution = L7D; result = -0.247
Substitution = L7C; result = 1.44
Substitution = K2H; result = 0.497

Block 5
Target: Histone acetyltransferase KAT6A, winged helix 2, GST fusion (KAT6A, Homo sapiens, UniProt Q92794, residues 85-181)
Method: protein binding microarray
Molecule type: double-stranded DNA, one strand shown
Matrix: in vitro
Tested at: not given
Notes: 8-mer, flanks averaged, mean of 2 arrays, mostly near background
Baseline: not given
Reading: higher = stronger binding
Measurement: E-score
Residues (chain): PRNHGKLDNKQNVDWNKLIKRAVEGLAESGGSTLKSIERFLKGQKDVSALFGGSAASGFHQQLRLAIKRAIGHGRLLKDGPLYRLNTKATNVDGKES
Strand = AAGGTGTG; result = -0.0556
Strand = AATTTTGA; result = 0.216
Strand = CTAGCAGC; result = -0.017
Strand = CCGGGCCC; result = 0.22
Strand = CAATATAC; result = -0.134
Strand = ACTATTAT; result = -0.0365
Strand = AGAATCAA; result = 0.105
Strand = CGAAGTCG; result = -0.02
Strand = ACTGTTGG; result = -0.129
Strand = CATTTGTA; result = 0.111
Strand = ACGCGCCA; result = -0.00916
Strand = AATATATT; result = 0.196
Strand = AATTGATA; result = 0.149
Strand = GTATTAAC; result = 0.0378
Strand = GCTCTGAC; result = -0.0377
Strand = CGCTTCTA; result = -0.0245
Strand = TCAGTTCA; result = -0.203
Strand = CCTTCGAA; result = 0.125
Strand = CTGTGCTC; result = 0.189
Strand = CGATTGAA; result = -0.0873

Block 6
Target: ATF5, bZIP domain (human)
Method: DHFR protein complementation
Matrix: yeast
Notes: single substitutions, most at no-binding floor
Baseline: wild-type JUN-FOS pair
Reading: higher = stronger binding
Measurement: binding fitness
Parent: JUN, bZIP domain (human); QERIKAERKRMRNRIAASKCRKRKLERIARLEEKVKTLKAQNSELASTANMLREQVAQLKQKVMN; partner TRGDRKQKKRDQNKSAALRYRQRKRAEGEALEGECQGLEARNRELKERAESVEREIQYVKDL
Substitution = S47E; result = -1.36 natural log
Substitution = N42P; result = -1.55 natural log
Substitution = M51S; result = -1.5 natural log
Substitution = E32H; result = -1.53 natural log
Substitution = K34R; result = -1.42 natural log
Substitution = E33K; result = -1.45 natural log
Substitution = K39D; result = -1.52 natural log
Substitution = E32T; result = -1.54 natural log
Substitution = L45D; result = -1.44 natural log
Substitution = V56P; result = -1.47 natural log
Substitution = L38Q; result = -1.53 natural log
Substitution = L38V; result = -1.51 natural log
Substitution = A40P; result = -1.53 natural log
Substitution = A46L; result = -1.18 natural log
Substitution = L45R; result = -1.5 natural log
Substitution = L31D; result = -1.47 natural log
Substitution = R53A; result = -1.48 natural log
Substitution = M51P; result = -1.55 natural log
Substitution = K34L; result = -1.56 natural log

Excerpt of the above (block 2):
Strand = UUCGCGA; result = -0.269
Strand = UUAGAAC; result = -0.0428
Strand = AGGUGCA; result = 0.193
Strand = GGGGCGC; result = 0.213
Strand = GCAGCCC; result = -0.179
Strand = CAUCCAA; result = 0.0352
Strand = GUCACUU; result = -0.193
Strand = UGCUGUA; result = -0.253
Strand = ACCGGCC; result = -0.362
Strand = GGCUACG; result = -0.124
Strand = UCCGAGU; result = -0.177
Strand = CGGAUCU; result = -0.0699
Strand = CGCUCGU; result = -0.478
Strand = UUGGUCC; result = -0.191
Strand = UGACAUA; result = -0.0953
Strand = UAGCGCA; result = -0.0373
Strand = UUGGUGC; result = -0.228
Strand = GAACUGC; result = -0.202
Strand = CCCGAUC; result = -0.262
Strand = UGUUCAG; result = -0.347
